Results pooled from the literature.
Each numbered part is a random draw from the data of one study; scales do not carry over between parts. Changes are numbered by the printed parent chain.

Set 1
Target: Sal-like protein 4, full length isoform A (SALL4, Homo sapiens, UniProt Q9UJQ4, residues 1-1053)
UniProt Q9UJQ4, sequence (whole entry, looked up): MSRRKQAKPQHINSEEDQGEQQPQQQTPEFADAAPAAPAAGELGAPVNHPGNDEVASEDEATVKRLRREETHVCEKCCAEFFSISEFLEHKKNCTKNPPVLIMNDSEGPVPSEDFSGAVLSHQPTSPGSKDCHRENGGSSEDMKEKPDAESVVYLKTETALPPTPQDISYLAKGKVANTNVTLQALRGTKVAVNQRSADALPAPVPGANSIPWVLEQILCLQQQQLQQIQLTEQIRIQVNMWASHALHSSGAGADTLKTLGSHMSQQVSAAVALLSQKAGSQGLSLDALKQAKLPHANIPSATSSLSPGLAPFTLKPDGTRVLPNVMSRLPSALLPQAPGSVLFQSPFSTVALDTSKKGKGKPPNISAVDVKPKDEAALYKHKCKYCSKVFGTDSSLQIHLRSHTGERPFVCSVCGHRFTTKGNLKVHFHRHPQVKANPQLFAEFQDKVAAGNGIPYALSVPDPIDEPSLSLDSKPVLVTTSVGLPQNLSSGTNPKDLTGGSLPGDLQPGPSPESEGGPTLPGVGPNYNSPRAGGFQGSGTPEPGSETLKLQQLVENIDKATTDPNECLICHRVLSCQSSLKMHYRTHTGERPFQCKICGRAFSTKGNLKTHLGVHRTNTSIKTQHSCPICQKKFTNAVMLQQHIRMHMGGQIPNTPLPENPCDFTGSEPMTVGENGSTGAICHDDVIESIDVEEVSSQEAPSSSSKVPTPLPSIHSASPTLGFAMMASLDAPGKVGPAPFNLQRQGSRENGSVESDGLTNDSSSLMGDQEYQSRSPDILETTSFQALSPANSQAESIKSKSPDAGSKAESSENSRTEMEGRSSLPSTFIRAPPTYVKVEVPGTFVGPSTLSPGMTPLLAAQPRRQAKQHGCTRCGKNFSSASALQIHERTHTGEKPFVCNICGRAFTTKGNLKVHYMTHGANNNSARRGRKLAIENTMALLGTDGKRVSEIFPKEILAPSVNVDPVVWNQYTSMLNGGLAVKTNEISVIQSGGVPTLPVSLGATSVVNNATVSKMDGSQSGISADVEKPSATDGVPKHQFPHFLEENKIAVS
Technique: universal PBM
Form: double-stranded DNA, one strand shown
Matrix: in vitro
Tested at: 600 nM
Setting: 8-mer, flanks averaged, mean of replicates
Reading: higher = stronger binding
Endpoint: E-score
ACTCACGC: -0.23
CTGGAGCA: -0.146
CCCCCAAA: -0.0624
CCCCGGGC: -0.43
AGTGAACT: -0.051
TCGCCCGA: -0.265
CGTCGAAG: -0.0991
CCCCACGC: -0.276
AGCTTCAC: -0.138
AAGAATAG: 0.2
ATGAATAG: 0.241
CGCTCGGA: -0.124
ACCTAACA: 0.0769
GAGTTATC: 0.148
AGCACGTC: -0.144
AATTAGCG: 0.00578
CGTGCATC: -0.214

Set 2
Target: Interferon regulatory factor 7, full length, phosphomimetic (IRF7, Homo sapiens, UniProt Q92985, residues 1-503, S101K/S471D/S472D/S475D/S476D/S477D/S483D/S484D/S487D)
Technique: protein-binding microarray
Form: double-stranded DNA, one strand shown
Matrix: in vitro
Tested at: 250 nM
Setting: 60-bp whole probe
With: salmon DNA 0.4 mg/ml
Baseline: random background probes
Reading: higher = stronger binding
Endpoint: log fluorescence
All sequences stand within: GCCTAGCAC … GTCTTGATTCGCTTGACGCTGCTG
Residues (chain): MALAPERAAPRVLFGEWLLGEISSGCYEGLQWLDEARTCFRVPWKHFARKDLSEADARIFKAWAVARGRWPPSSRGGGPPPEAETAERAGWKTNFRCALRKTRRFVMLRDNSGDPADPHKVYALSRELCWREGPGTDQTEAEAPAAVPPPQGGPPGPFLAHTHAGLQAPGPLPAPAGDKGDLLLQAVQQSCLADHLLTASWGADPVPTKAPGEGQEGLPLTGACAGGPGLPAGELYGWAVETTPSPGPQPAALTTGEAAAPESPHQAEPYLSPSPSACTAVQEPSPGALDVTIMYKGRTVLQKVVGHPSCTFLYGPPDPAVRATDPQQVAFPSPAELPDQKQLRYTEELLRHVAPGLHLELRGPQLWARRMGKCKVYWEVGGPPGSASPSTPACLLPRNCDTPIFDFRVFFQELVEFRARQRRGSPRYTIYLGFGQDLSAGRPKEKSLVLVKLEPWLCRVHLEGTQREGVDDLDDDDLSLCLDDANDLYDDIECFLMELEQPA
GACGATATCGGGACTGTAGACGTGCTA: -0.326 z-score
CACGGTTTCGGGACTGGGGACGTGCTA: 4.26 z-score
TGTACTTTCTATCTCTGTTTGTGCTAG: 1.91 z-score
TTAGGACTGGGGGCTGGGTTAGTGCTA: 1.29 z-score
TCAGTTCACTATTTAAGACTGTGCTAG: 1.4 z-score
GACGGTATCGGGTTTCGGAACGTGCTA: 5.15 z-score
TAGAAATTTTTTTTCTAACTGTGCTAG: 0.0292 z-score
TACGGTTTCGGGTATCGGGACGTGCTA: 7.73 z-score
TTAGCTTTCGACTTTCGGTTAGTGCTA: 2.96 z-score
TATTGTTTCCTTCCTCTTTTGTGCTAG: 2.63 z-score
TTAGGACTGGGGTATCGGCTAGTGCTA: -0.657 z-score
GACGATTTCAGTAACGAGACGTGCTAG: 0.288 z-score
GACGGTTTCGACTTGCGGGACGTGCTA: 12.8 z-score
TCAATGGTCCTGGTTTCAACTGTGCTA: 0.495 z-score
TTAAGTCTCGGTATCGGTTAGTGCTAG: 3.44 z-score
GACGGACTGGACCCTGGGGACGTGCTA: -0.56 z-score
GACGGACTGGGTCTCGGTACGTGCTAG: -0.142 z-score
GACGGTATCGGACAGGGGACGTGCTAG: -0.244 z-score

Set 3
Target: Histone acetyltransferase KAT6A, winged helix 2, GST fusion (KAT6A, Homo sapiens, UniProt Q92794, residues 85-181)
Technique: protein binding microarray
Form: double-stranded DNA, one strand shown
Matrix: in vitro
Tested at: not given
Setting: 8-mer, flanks averaged, mean of 2 arrays, mostly near background
Baseline: not given
Reading: higher = stronger binding
Endpoint: E-score
Construct (chain): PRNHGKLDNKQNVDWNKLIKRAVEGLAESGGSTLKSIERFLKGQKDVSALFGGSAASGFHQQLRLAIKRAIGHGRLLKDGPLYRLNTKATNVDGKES
CAGGGGCG: 0.0945
TTGCGCAA: -0.0602
CATGGAAA: -0.0463
ACTGCTGC: 0.0287
TACATGTA: -0.185
ACAGAGCC: -0.0035
CCAAATGC: 0.087
GGTATGGA: -0.0136
GTTATCCA: -0.168
CAATCCCA: -0.0862
CCGGACCG: -0.0062
GATAAGAA: 0.144
CCATGTTA: -0.142
CGTTTCAC: 0.02
GCAAATAA: 0.176
ACGATTGA: -0.155

Set 4
Target: CCNA1, cyclin fold, Cln2 fusion (human)
Technique: yeast growth competition, sequencing
Matrix: yeast
Setting: weak parent motif
Baseline: not given
Reading: higher = stronger binding
Endpoint: normalised enrichment score
Parent: CDKN1B docking peptide (human); PSACRNLFGPVDH; partner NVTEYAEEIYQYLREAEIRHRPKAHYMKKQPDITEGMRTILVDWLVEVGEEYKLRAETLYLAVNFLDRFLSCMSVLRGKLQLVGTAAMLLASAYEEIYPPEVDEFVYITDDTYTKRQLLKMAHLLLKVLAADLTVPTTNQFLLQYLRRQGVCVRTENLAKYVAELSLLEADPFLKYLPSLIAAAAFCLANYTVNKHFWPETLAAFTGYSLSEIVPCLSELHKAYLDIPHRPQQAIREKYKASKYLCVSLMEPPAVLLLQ
PSACRNLFGPRDH [V11R]: 0.205
PSACRNNFGPVDH [L7N]: -0.0284
PSACQNLFGPVDH [R5Q]: 0.303
PSACRNLFGPHDH [V11H]: 0.585
PSACDNLFGPVDH [R5D]: 0.297
VSACRNLFGPVDH [P1V]: 0.442
PSACHNLFGPVDH [R5H]: 0.152
PSACRNLFGPVDC [H13C]: 0.4
PSACRNLSGPVDH [F8S]: 0.483
PSACRNHFGPVDH [L7H]: 0.434
PSACRNLFGPMDH [V11M]: 0.277
PSACRNLFGPVDR [H13R]: 0.371
PSACRQLFGPVDH [N6Q]: 0.346
PRACRNLFGPVDH [S2R]: 0.449

Set 5
Target: ABI1, truncated, D143A, DHFR fusion (Arabidopsis thaliana)
Technique: DHFR PCA, deep sequencing
Matrix: yeast
Setting: methotrexate growth selection, single substitutions
With: (+)-ABA 4.8 µM
Baseline: wild-type fitted maximum
Reading: higher = stronger binding
Endpoint: relative binding score
Parent: PYL1, truncated, DHFR fusion (Arabidopsis thaliana); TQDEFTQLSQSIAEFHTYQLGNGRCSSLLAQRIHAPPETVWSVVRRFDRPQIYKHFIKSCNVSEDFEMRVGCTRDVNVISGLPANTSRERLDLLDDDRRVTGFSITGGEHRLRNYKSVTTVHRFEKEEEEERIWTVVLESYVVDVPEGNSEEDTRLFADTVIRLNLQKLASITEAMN
D96Y: 8.62%
N149H: 9.87%
D3C: 60.1%
N85G: 64.9%
A84L: 6.99%
L112Y: -0.222%
S104M: 4.44%
Y18T: 34.6%
T154C: 60.6%
T119N: -4.06%
T39V: 77.7%
E152G: 51.9%
R163E: 7.18%
Y53I: -6.84%
H34A: 77.2%
R45T: 5.39%
A30F: 74.8%
E4R: 42.3%

Set 6
Target: Hepatocyte nuclear factor 3-alpha (Foxa1, Mus musculus, UniProt P35582, residues 1-468, full length assumed)
Technique: EMSA with sequencing
Form: double-stranded DNA, one strand shown
Matrix: in vitro
Tested at: 10 and 20 nM
Setting: whole designed probe, mean of two concentrations, ends assumed
Baseline: negative control set to 0
Reading: higher = stronger binding
Endpoint: normalised bound fraction
Construct (chain): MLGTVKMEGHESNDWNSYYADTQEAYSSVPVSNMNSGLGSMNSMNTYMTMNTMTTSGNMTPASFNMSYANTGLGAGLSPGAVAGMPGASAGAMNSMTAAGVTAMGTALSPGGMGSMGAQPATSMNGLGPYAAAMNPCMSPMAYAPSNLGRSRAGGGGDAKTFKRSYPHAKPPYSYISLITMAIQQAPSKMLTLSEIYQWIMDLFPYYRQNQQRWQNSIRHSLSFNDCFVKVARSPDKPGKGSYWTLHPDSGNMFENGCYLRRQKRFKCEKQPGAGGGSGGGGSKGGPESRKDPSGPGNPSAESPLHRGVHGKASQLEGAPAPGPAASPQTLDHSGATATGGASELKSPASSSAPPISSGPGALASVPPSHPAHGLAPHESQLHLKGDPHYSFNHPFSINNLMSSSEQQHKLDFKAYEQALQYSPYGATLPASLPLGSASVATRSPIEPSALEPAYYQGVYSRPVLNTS
GTGAGCGGTGCCCATTGATGGGGAACAAATGGAAATCATAATGCAGATACAGAATTTTAAAGTTGGTTATCTCCTGCTACCTCAAGTATTATTTTAGGATTAGTAAGGGAAATTACCTAAGTAATCTTAGATGAATTATTCACATATAAATCTGAGATTCACTCATATATAATAATCTAATTTTTTACTAGACTTGGTGATCATAAGAAATATTATAAGTTTCACTGGGATCGTGGGGAC: -0.0362 ratio
GTGAGCGGTGCCCATTGATGGGGAACAGGTATTTTGCTGCCACACTGATAGTTCAGTGAATTGCACTTTTGGATCTTGGAGAATGGAGAGAAGCAGCTAGGCAAATAATTGGCAAGAAAAGTAAACAGTTACAGTGCAGCTTTGTTTACCCACTCTGCCTATCTGCGTTTCTGAAATTGGATTCCTTGGCTCTGTGAACTAGTTAGCCTTCCTTTAGAGTTTCACTGGGATCGTGGGGAC: 0.493 ratio
GTGAGCGGTGCCCATTGATGGGGAACTTTGCAGAGCTTTTCCAGTGAGAGTATCCTAGATACTTGGGGTCATGGCATTACCTTTACATTAGGGCGACAGCAGCTGCAATCTAAACAAAGTAATCTAGTCTGCTAGTGCTTGCCTCTTAAACTAGCCAGGTAGTAGGGTATTTGAGAGTTTAGATAGCCATGCATGTTATATAGGCAGGAAGCAGACAAATTTCACTGGGATCGTGGGGAC: 0.097 ratio

Some of these lines once more (set 6):
GTGAGCGGTGCCCATTGATGGGGAACAAATGGAAATCATAATGCAGATACAGAATTTTAAAGTTGGTTATCTCCTGCTACCTCAAGTATTATTTTAGGATTAGTAAGGGAAATTACCTAAGTAATCTTAGATGAATTATTCACATATAAATCTGAGATTCACTCATATATAATAATCTAATTTTTTACTAGACTTGGTGATCATAAGAAATATTATAAGTTTCACTGGGATCGTGGGGAC: -0.0362 ratio
GTGAGCGGTGCCCATTGATGGGGAACAGGTATTTTGCTGCCACACTGATAGTTCAGTGAATTGCACTTTTGGATCTTGGAGAATGGAGAGAAGCAGCTAGGCAAATAATTGGCAAGAAAAGTAAACAGTTACAGTGCAGCTTTGTTTACCCACTCTGCCTATCTGCGTTTCTGAAATTGGATTCCTTGGCTCTGTGAACTAGTTAGCCTTCCTTTAGAGTTTCACTGGGATCGTGGGGAC: 0.493 ratio
GTGAGCGGTGCCCATTGATGGGGAACTTTGCAGAGCTTTTCCAGTGAGAGTATCCTAGATACTTGGGGTCATGGCATTACCTTTACATTAGGGCGACAGCAGCTGCAATCTAAACAAAGTAATCTAGTCTGCTAGTGCTTGCCTCTTAAACTAGCCAGGTAGTAGGGTATTTGAGAGTTTAGATAGCCATGCATGTTATATAGGCAGGAAGCAGACAAATTTCACTGGGATCGTGGGGAC: 0.097 ratio
